Results of several laboratories.
“And” joins repeats or separate records; there may be more than shown. ± gives the spread as reported.
STS: Steryl-sulfatase (STS, Homo sapiens, UniProt P08842)
CD274 with PD-1: Programmed cell death 1 ligand 1, with PD-1 (CD274, Homo sapiens, UniProt Q9NZQ7)
RIPK2: Receptor-interacting serine/threonine-protein kinase 2 (RIPK2, Homo sapiens, UniProt O43353)
ADORA1: Adenosine receptor A1 (ADORA1, Homo sapiens, UniProt P30542)
uidA: Beta-glucuronidase (uidA, Escherichia coli, UniProt P05804)

Compound	target	test	system	conditions	IC50
O=C(O)c1c(CC(O)c2ccc(O)cc2)cccc1OC1OC(CO)C(O)C(O)C1O (stereo not shown)	Tyrosine-protein phosphatase non-receptor type 1 (PTPN1, Homo sapiens, UniProt P18031)	enzyme activity, inhibitor, absorbance			> 100 µM
COc1cc(O)ccc1CC[C@H](c1ccc(O)cc1)c1cc2c(c(C)c1O)O[C@@H](c1ccc(O)cc1)CC2	Polyunsaturated fatty acid 5-lipoxygenase (ALOX5, Homo sapiens, UniProt P09917)	5-LO product formation	human PMNL	added: A23187 plus arachidonic acid	13.4 µM
COc1ccc(C(=O)/C=C(\O)C(F)(F)C(F)(F)F)cn1	Formate-nitrite transporter (Plasmodium knowlesi, UniProt A0A679KXN5)	L-lactate transport, inhibitor	yeast	pH 6.8, added: 14C-L-lactate 1 mM	0.99 ± 0.08 µM
C[C@@H]1NC(=O)CNC(=O)c2cc3cc(c2)C(=O)NC[C@@H](C(=O)NCCC(=O)NCCC(=O)N[C@@H](CCCCN)C(N)=O)NC(=O)[C@H](CCCNC(=N)N)NC(=O)[C@@H](CCCNC(=N)N)NC(=O)[C@H](CCCNC(=N)N)NC(=O)[C@H](Cc2ccc4ccccc4c2)NC(=O)[C@H](Cc2ccccc2)NC(=O)[C@H](CNC3=O)NC(=O)[C@H](C)NC(=O)[C@H](C)NC(=O)[C@H](C)NC1=O	NF-kappa-B essential modulator, with IKK-beta (IKBKG, Homo sapiens, UniProt Q9Y6K9)	inhibitor, HTRF			> 100 µM
NS(=O)(=O)Oc1ccc2c3c(c(=O)oc2c1)CCCC3	STS	enzyme activity in cells, inhibitor			0.007 µM
CC(C)C[C@@H](N)C(=O)N[C@H](CC(=O)O)C(=O)N[C@@H](C(=O)N[C@H](Cc1ccccc1)C(=O)N[C@H](CC(C)C)C(=O)N[C@H](Cc1ccc(O)cc1)C(=O)N[C@H](CO)C(=O)N[C@H](CCC(=O)O)C(=O)O)C(C)C	CD274 with PD-1	PD-1/PD-L1 binding, inhibitor, flow cytometry	CHO-K1 expressing human PD-1	added: human PD-L1-Fc	30.25 ± 0.24 µM
COc1ncc2nc(C)n(Cc3ncc(S(N)(=O)=O)cc3F)c2c1-c1ccccc1	Ectonucleotide pyrophosphatase/phosphodiesterase family member 1 (ENPP1, Homo sapiens, UniProt P22413)	enzyme activity, inhibitor, AMP-Glo		added: 2',3'-cGAMP substrate	0.00063 µM
CC(=O)OC1CCC2(C)C(CCC3(C)C2CCC2C(C4=CC(C=C(C)C)OC4=O)CCC23C)C1(C)C (stereo not shown)	α-glucosidase (yeast)	inhibitor		added: pNPG	34 ± 3.01 µM
Cn1nc(-c2cccc(O)c2)c2c(N)ncnc21	Protein-tyrosine kinase 6 (PTK6, Homo sapiens, UniProt Q13882)	enzyme activity, inhibitor, ADP detection			0.0111 µM
C#CC(=O)Nc1ccc2nc(NCCCCCN(C)C)nc(NCCCCCCN(C)C)c2c1	Histone-lysine N-methyltransferase SETDB1 (SETDB1, Homo sapiens, UniProt Q15047)	enzyme activity, inhibitor			6.77 µM
CCC=CCC=CCC=CCC=CCC=CCCCC(=O)Oc1cc(C(=O)O[C@@H]2Cc3c(O)cc(O)cc3O[C@@H]2c2cc(OC(=O)CCCC=CCC=CCC=CCC=CCC=CCC)c(O)c(OC(=O)CCCC=CCC=CCC=CCC=CCC=CCC)c2)cc(OC(=O)CCCC=CCC=CCC=CCC=CCC=CCC)c1O	Genome polyprotein, protease (Hepatitis C virus genotype 1a, UniProt P27958)	enzyme activity, inhibitor, fluorescence			0.006 µM
CC(C)NC(=O)N1CCC=C(c2cc3c(Nc4cc5ncsc5cc4F)ncnc3s2)C1	RIPK2	enzyme activity, inhibitor			0.009 µM
COC(=O)C1C(c2nc3cc(OC)ccc3[nH]2)=Cc2cc3c(cc2C1c1cc(OC)c(OC)c(OC)c1)OCO3 (stereo not shown)	tubulin alpha/beta (Leishmania infantum, UniProt A0A381MCS3+A4HTR0)	tubulin polymerization, inhibitor		37 °C	0.7 µM and 0.66 µM
CC12CC3(C)CC(C)(C1)CC(NC(=O)NC14CC5CC(CC(C5)C1)C4)(C2)C3	Bifunctional epoxide hydrolase 2 (Ephx2, Mus musculus, UniProt P34914)	enzyme activity, inhibitor, fluorescence			0.107 µM
COc1cccc(Cc2cc(CCC(=O)NCCNc3cccc4c(S(=O)(=O)O)cccc34)nn(CC(=O)Nc3ccc(Br)cc3)c2=O)c1	fMet-Leu-Phe receptor (FPR1, Homo sapiens, UniProt P21462)	calcium signal, antagonist			0.002 µM
C=CC(=O)Nc1cc(NC(=O)c2cnn(-c3ccccc3F)c2)ccc1F	V-type proton ATPase catalytic subunit A (ATP6V1A, Homo sapiens, UniProt P38606)	enzyme activity, inhibitor			1.7 µM
O=C(/C=C/c1ccc(Cl)cc1Cl)NO	Polyamine deacetylase HDAC10 (hdac10, Danio rerio, UniProt F1QCV2)				0.112 ± 0.019 µM
C[C@H](NC(=O)CNC(=O)[C@H](Cc1ccc(O)cc1)NC(=O)[C@@H](N)CSSC[C@H](N)C(=O)N[C@@H](Cc1ccc(O)cc1)C(=O)NCC(=O)N[C@@H](C)C(=O)N[C@@H](CCCCN)C(N)=O)C(=O)N[C@@H](CCCCN)C(N)=O	Calpain-10, mitochondrial (Oryctolagus cuniculus, UniProt G1TPK4)	enzyme activity, inhibitor	mitochondrial matrix	added: Suc-LLVY-AMC	0.096 µM
C=CC(=O)N1CCC(c2cc(C(=O)O)n(C)n2)CC1	Fosb/Jund, ΔFosB isoform (Mus musculus, UniProt P13346+P15066)	ΔFOSB/JUND DNA binding, fluorescence polarization		15 min, added: TMR-cdk5 oligonucleotide	22.5 ± 4.6 µM
S=C1NC(=S)/C(=C/c2ccc3c(c2)OCO3)S1	Phosphatidylinositol 4,5-bisphosphate 3-kinase catalytic subunit alpha isoform (PIK3CA, Homo sapiens, UniProt P42336)	enzyme activity, inhibitor, radiometric			1.9 µM
Cc1c(OCc2ccc(Cl)c(Cl)c2)ccc(-c2cc[nH]n2)c1O	Inducible T-cell costimulator, with ICOS ligand (Homo sapiens, UniProt Q9Y6W8)	ICOS/ICOS-L binding, inhibitor, TR-FRET		5% DMSO	29.4 ± 3.41 µM
CC(=O)Nc1ccc(C(=O)Nc2cc(-c3cccs3)ccc2N)cc1	Histone deacetylase 4 (HDAC4, Homo sapiens, UniProt P56524)	deacetylase activity, inhibitor, recombinant enzyme			> 30 µM
O=C(NC1CC=C(c2cc3c(Nc4cc5ncsc5cc4F)ncnc3s2)CC1)NC1CCCC1 (racemic)	RIPK2	enzyme activity, inhibitor			0.01 µM

Compound	target	test	system	conditions	IC50
CCCCCCCCCCCCCCCC(OC(=O)[C@H](CCCCN(O)C=O)NC(=O)[C@H]1N=C(c2ccccc2O)O[C@@H]1C)C(C)C(=O)N[C@@H]1CCCCN(O)C1=O (stereo partly shown)	Muscarinic acetylcholine receptor M3 (CHRM3, Homo sapiens, UniProt P20309)	calcium signal, antagonist, fluorescence			1.15 µM
Cc1c(-c2ccccc2)cccc1N1C(=O)c2cc(O)c(CNCCO)cc2C1=O	CD274 with PD-1	PD-1/PD-L1 binding, inhibitor, TR-FRET			0.739 µM
CCn1cc[n+](CC)[c]1[Au-]([Cl])([Cl])[Cl]	Thioredoxin reductase (trxB, Escherichia coli, UniProt P0A9P4)	enzyme activity, inhibitor, absorbance		with preincubation	0.55 µM
CCc1nc2nc(C)c(N=S(=O)(O)c3ccc(CC(C)C)cc3)c(O)n2n1	P2Y purinoceptor 14 (P2RY14, Homo sapiens, UniProt Q15391)	antagonist			0.0124 µM
CCNC(=O)[C@H]1O[C@@H](n2cnc3c(NCCCCCCCCCCCNS(=O)(=O)c4cccc5c(N(C)C)cccc45)ncnc32)[C@H](O)[C@@H]1O	ADORA1	ligand displacement in cells, radioligand			14.8 µM
CCCC[C@H]1C(=O)NCC(=O)N[C@@H](CC(=O)O)C(=O)N[C@@H](C(C)C)C(=O)N(C)[C@@H](Cc2ccccc2)C(=O)N[C@@H](Cc2ccc(O)cc2)C(=O)N(C)CC(=O)N[C@@H](Cc2c[nH]c3ccccc23)C(=O)N[C@@H](Cc2ccc(O)cc2)C(=O)N[C@@H](CC(C)C)C(=O)N[C@H](C(=O)NCC(N)=O)CSCC(=O)N[C@@H](Cc2ccccc2)C(=O)N(C)[C@@H](Cc2ccccc2)C(=O)N1C	Programmed cell death 1 ligand 1 (CD274, Homo sapiens, UniProt Q9NZQ7)	binding, inhibitor, HTRF			0.133 ± 0.00123 µM
C=CCC(=N)NCCC[C@H](N)C(=O)O	Nitric oxide synthase 1 (Mus musculus, UniProt Q9Z0J4)	NMDA-evoked cGMP accumulation	adult mouse hippocampal slices	2 min, preincubation 25 min, added: NMDA 100 µM, BAY 60-7550 1 µM	1.2 µM and ~1 µM and 1 to 2 µM
CCCCCCCCCCCCCCCCC1=C[C@H](C(=O)NC(C(=O)O)C(C)C)[C@H]2C(=O)C(C(=O)OC)=C(CCCCCCCCCCCCCCCC)[C@H]2[C@H]1C(=O)OC (stereo partly shown)	protein kinase A	inhibitor			> 50 µM
O=C(O)[C@@H]1[C@@H](OCCNC(=O)C(F)(F)F)[C@H](O)[C@@H](O)[C@@H]2O[C@@H]21	uidA	enzyme activity, inhibitor, fluorescence		pH 5, with preincubation	> 100 µM
O=Cc1cccc(C=O)c1	Tryptase beta-2 (TPSB2, Homo sapiens, UniProt P20231)			pH 7.4	> 10000 µM
CC(C)CN(CC(=O)NCCCCCCNC(=O)c1ccc(-c2n[nH]c3ccccc23)cc1)C(=O)C(C)NC(=O)C1COc2ccccc2C1 (stereo not shown)	Mitogen-activated protein kinase 10 (MAPK10, Homo sapiens, UniProt P53779)	enzyme activity, inhibitor			0.127 µM
COc1cc(/C=C/C(=O)c2ccc3c(c2)OCO3)cc(OC)c1OC	Broad substrate specificity ATP-binding cassette transporter ABCG2 (ABCG2, Homo sapiens, UniProt Q9UNQ0)	transporter efflux, inhibitor, flow cytometry	HEK293	30 min	0.64 µM
Nc1ncnc2c1ncn2[C@@H]1O[C@H](COc2cncc(CCC(=O)c3ccccc3C(=O)O)c2)[C@@H](O)[C@H]1O	2-succinylbenzoate--CoA ligase (menE, Escherichia coli, UniProt P37353)	enzyme activity, inhibitor, MenB-MenE coupled			11.5 ± 0.8 µM
COc1ccc(OCC(=O)c2ccc(O)c(C)c2O)cc1	Estrogen receptor (ESR1, Homo sapiens, UniProt P03372)	coactivator recruitment, antagonist			6.8 µM
CCC(NC(=O)CN1C(=O)N/C(=C\c2ccc(C)cc2)C1=O)C(=O)OC (stereo not shown)	α-amylase	enzyme activity, DNSA colorimetric			> 100 µM
O=C(c1cccc(S(=O)(=O)N2CCOCC2)c1)N1CCOCC1	Ectonucleoside triphosphate diphosphohydrolase 8 (Homo sapiens, UniProt Q5MY95)	enzyme activity, inhibitor, absorbance			31.8 µM
CC(C)=CCc1c(O)c(CC=C(C)C)c2occ(-c3ccc(O)c(O)c3)c(=O)c2c1O	uidA	enzyme activity, inhibitor			3.89 µM
CCNC(=O)[C@H]1O[C@@H](n2cnc3c(NCCCNC(=O)CCCCCNC(=O)COc4ccc(/C=C/C5=[N+]6C(=Cc7ccc(-c8cccs8)n7[B-]6(F)F)C=C5)cc4)ncnc32)[C@H](O)[C@@H]1O	ADORA1	CRE reporter gene, agonist	CHO-A1	Gi-mediated inhibition, added: forskolin	0.00617 µM
CNC(=O)C1CCN(c2ccccc2NC(=O)c2ccc(-c3cc(O)ccc3C)cc2)CC1	Tyrosine-protein kinase Fgr (FGR, Homo sapiens, UniProt P09769)	target engagement, NanoBRET	intact cells		> 50 µM
O=C(/C=C/c1ccc(O)cc1)/C=C/c1ccc(O)cc1	Pancreatic triacylglycerol lipase (PNLIP, Sus scrofa, UniProt P00591)	enzyme activity, inhibitor, absorbance			265 µM
Cn1c(-c2ccccc2)ccc1-c1nc(-c2ncc(Br)cn2)no1	CD274 with PD-1	PD-1/PD-L1 binding, inhibitor, TR-FRET		room temperature	2.6 µM
COC(=O)CCSc1nc2n(n1)C(c1cccc(OC)c1)C(C(=O)Nc1cncc(C)c1)=C(C)N2 (stereo not shown)	Phosphatidylinositol 4,5-bisphosphate 3-kinase catalytic subunit gamma isoform (PIK3CG, Homo sapiens, UniProt P48736)	enzyme activity, inhibitor, ADP detection			1.18 µM
NS(=O)(=O)Oc1ccc(CN(c2ccccc2)n2cnnc2)cc1	STS	enzyme activity, inhibitor	JEG-3 intact monolayers		> 1 µM
